Measured values pooled from the literature.
IL18BP: IL18BP (Homo sapiens, UniProt O95998)
B1: IL18 37-193 S43C/C74S/S86C/C104S/C112S/C163S (Homo sapiens, UniProt Q14116); chain YFGKLECKLSVIRNLNDQVLFIDQGNRPLFEDMTDSDSRDNAPRTIFIICMYKDSQPRGMAVTISVKSEKISTLSSENKIISFKEMNPPDNIKDTKSDIIFFQRSVPGHDNKMQFESSSYEGYFLASEKERDLFKLILKKEDELGDRSIMFTVQNED
B2: IL18 37-193 C74S/C104S/C163S/L174C (Homo sapiens, UniProt Q14116); chain YFGKLESKLSVIRNLNDQVLFIDQGNRPLFEDMTDSDSRDNAPRTIFIISMYKDSQPRGMAVTISVKSEKISTLSCENKIISFKEMNPPDNIKDTKSDIIFFQRSVPGHDNKMQFESSSYEGYFLASEKERDLFKLICKKEDELGDRSIMFTVQNED
B3: TNFSF4 51-183 (Homo sapiens, UniProt P23510); sequence looked up; chain QVSHRYPRIQSIKVQFTEYKKEKGFILTSQKEDEIMKVQNNSVIINCDGFYLISLKGYFSQEVNISLHYQKDEEPLFQLKKVRSVNSLMVASLTYKDKVYLNVTTDNTSLDDFHVNGGELILIHQNPGEFCVL
B4: designed binder (Homo sapiens); chain MASAARLTMMWEEVTCPICLDPFVEPVSIECGHSFCQECISQVGKGGGSVCPVCRQRFLLKNLRPNRQLANMVNNLKEISQEAREGTQGERCAVHGERLHLFCEKDGKALCWVCAQSRKHRDHAMVPLEEAAQEYQEKLQVALGELRRKQELAEKLEVEIAIKRADWKKTVETQKSRIHAEFVQQKNFLVEEEQRQLQELEKDEREQLRILGEKEAKLAQQSQALQELISELDRRCHSSALELLQEVIIVLERSESWNLKDLDITSPELRSVCHVPGLKKMLRTCAGGGGSGGGGSGGGGSRLDAPSAIRVYRVTDVYAIIYWYVPLAEIDGFELTYGIKDVPGDRTTIKLTEDDSTYVIYRLKPDTEYEVSLISRRGDMSSNPAKITFKTGL
B5: CDC48A 1-190 (Arabidopsis thaliana, UniProt P54609); chain MSTPAESSDSKSKKDFSTAILERKKSPNRLVVDEAINDDNSVVSLHPATMEKLQLFRGDTILIKGKKRKDTVCIALADETCEEPKIRMNKVVRSNLRVRLGDVISVHQCPDVKYGKRVHILPVDDTVEGVTGNLFDAYLKPYFLEAYRPVRKGDLFLVRGGMRSVEFKVIETDPAEYCVVAPDTEIFCEG
B6: PPM1A (human); sequence looked up; chain GAFLDKPKMEKHNAQGQGNGLRYGLSSMQGWRVEMEDAHTAVIGLPSGLESWSFFAVYDGHAGSQVAKYCCEHLLDHITNNQDFKGSAGAPSVENVKNGIRTGFLEIDEHMRVMSEKKHGADRSGSTAVGVLISPQHTYFINCGDSRGLLCRNRKVHFFTQDHKPSNPLEKERIQNAGGSVMIQRVNGSLAVSRALGDFDYKCVHGKGPTEQLVSPEPEVHDIERSEEDDQFIILACDGIWDVMGNEELCDFVRSRLEVTDDLEKVCNEVVDTCLYKGSRDNMSVILICFPNAPKVSPEAVKKEAELDKYLECRVEEIIKKQGEGVPDLVHVMRTLASENIPSLPPGGELASKRNVIEAVYNRLNPYKNDDTDSTSTDDMW
Chain of UniProt Q9UDY8 (whole entry, looked up): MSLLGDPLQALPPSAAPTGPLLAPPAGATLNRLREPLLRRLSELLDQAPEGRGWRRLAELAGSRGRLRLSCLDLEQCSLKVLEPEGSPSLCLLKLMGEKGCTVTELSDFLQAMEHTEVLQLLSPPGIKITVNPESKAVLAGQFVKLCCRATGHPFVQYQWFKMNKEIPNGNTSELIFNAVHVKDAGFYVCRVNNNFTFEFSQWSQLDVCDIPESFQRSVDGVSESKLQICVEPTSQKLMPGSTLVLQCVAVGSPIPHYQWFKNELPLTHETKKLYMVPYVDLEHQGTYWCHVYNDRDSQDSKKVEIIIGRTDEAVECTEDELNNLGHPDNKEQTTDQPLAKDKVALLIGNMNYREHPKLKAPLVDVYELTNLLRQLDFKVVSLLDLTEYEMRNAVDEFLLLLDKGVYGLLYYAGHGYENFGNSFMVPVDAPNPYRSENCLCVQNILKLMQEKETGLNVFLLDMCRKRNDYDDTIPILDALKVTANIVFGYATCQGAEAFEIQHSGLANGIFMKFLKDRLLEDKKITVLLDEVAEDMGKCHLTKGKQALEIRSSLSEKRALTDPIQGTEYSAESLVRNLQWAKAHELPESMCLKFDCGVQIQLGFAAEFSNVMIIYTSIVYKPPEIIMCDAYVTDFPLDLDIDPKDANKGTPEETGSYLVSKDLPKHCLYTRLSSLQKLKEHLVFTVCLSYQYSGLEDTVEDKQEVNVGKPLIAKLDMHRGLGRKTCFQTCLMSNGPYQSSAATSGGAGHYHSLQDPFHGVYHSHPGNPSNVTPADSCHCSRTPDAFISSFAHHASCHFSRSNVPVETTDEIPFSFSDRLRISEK
Chain of UniProt Q4V3D3 (whole entry, looked up): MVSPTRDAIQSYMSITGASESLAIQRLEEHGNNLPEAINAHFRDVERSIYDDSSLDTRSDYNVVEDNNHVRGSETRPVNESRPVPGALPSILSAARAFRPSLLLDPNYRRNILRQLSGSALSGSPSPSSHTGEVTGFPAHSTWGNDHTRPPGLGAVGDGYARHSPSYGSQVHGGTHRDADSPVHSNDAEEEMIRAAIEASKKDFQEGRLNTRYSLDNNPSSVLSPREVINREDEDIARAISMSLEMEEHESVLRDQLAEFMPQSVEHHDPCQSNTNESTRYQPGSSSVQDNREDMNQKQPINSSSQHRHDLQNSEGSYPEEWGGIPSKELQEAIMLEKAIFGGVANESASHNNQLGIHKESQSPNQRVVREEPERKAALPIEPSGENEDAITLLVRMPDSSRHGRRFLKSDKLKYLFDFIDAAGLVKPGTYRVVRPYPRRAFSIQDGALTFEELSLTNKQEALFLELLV
Chain of UniProt P12314 (whole entry, unmodified, looked up): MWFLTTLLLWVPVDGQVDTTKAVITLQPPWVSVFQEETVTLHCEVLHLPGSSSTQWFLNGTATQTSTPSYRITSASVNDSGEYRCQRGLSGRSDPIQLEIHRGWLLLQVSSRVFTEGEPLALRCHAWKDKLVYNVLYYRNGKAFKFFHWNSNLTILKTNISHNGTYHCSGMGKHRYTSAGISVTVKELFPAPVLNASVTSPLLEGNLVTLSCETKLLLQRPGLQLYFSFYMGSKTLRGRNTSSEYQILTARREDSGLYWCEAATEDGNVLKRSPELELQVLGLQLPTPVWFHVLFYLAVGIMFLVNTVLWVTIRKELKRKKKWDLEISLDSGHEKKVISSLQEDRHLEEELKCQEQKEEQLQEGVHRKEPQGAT
Chain of UniProt P26368 (whole entry, looked up): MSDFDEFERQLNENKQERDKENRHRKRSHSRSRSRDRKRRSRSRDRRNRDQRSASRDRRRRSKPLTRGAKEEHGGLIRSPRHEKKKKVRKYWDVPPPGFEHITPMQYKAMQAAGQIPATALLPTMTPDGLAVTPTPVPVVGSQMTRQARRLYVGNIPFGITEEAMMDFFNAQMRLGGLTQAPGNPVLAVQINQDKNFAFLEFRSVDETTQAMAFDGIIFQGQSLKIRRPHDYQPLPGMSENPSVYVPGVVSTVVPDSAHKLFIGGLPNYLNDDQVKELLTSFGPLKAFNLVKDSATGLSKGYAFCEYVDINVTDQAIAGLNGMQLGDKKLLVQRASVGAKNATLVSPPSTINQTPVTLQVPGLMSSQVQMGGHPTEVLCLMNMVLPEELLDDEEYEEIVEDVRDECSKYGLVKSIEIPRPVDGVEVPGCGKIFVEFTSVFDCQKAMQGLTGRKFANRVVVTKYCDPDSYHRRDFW
Chain of UniProt P11362 (whole entry, looked up): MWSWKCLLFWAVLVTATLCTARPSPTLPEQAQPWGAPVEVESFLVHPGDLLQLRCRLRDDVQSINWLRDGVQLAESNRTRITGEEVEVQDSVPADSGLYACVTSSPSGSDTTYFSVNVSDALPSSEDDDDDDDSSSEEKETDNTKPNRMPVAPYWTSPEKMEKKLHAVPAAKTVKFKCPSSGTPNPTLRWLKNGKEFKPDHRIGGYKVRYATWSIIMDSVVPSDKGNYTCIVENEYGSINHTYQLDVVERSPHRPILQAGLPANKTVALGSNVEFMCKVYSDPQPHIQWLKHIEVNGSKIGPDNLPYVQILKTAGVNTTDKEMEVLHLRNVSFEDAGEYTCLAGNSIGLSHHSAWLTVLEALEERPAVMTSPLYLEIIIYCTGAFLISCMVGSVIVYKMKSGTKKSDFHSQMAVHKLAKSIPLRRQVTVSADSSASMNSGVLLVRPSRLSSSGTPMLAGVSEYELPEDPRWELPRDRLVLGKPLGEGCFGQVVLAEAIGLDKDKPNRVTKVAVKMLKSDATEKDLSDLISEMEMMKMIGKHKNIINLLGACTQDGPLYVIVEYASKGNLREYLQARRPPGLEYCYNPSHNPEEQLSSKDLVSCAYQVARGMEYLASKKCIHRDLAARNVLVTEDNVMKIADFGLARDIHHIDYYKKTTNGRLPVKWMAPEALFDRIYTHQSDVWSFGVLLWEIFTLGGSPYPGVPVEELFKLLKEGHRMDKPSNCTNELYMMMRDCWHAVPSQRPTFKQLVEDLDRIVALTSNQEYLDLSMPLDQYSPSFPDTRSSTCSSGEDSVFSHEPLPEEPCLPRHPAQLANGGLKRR

AUGAAUUGC (ssRNA)  Kd (U2AF2 148-342 (Homo sapiens, UniProt P26368); sequencing of bound RNA; RNA; motif only): 1170 nM
clathrin heavy chain 2, human  log2 fold change (CYB5R4 knockout human cells; PP4 interaction, 3xFLAG-PP4C IP-MS; concentration not given; baseline: CYB5R4 KO over parental): -1.11
B1  koff (IL18BP; SPR): 3.2e-05 s⁻¹
MBL-A mature, hydroxylysine, hydroxyproline in collagen (Rattus norvegicus, UniProt P19999)  koff (C1R fragment (Homo sapiens); SPR; together with: CaCl2 140 mM): 0.00202 s⁻¹
B2  koff (IL18BP; SPR): 2e-05 s⁻¹
Trastuzumab IgG1, CSCS double cysteine mutant (Homo sapiens)  koff (FCGR1A (Homo sapiens, UniProt P12314); SPR): 0.00055 s⁻¹
FHDAWPNLSKSS (designed peptide)  koff (FGFR1 22-376 (Homo sapiens, UniProt P11362); SPR; peptide): 0.00556 s⁻¹
B3 (TNFSF4 51-183)  koff (TNFRSF4 29-170 W86A (Homo sapiens, UniProt P43489); SPR): 0.039 s⁻¹
YLPTITGVGHLWHPLC (engineered peptide)  koff (VPS35/VPS26A/VPS29 retromer complex (Homo sapiens); SPR; peptide): 0.01 s⁻¹
B4 (designed binder)  koff (MALT1 (Homo sapiens, UniProt Q9UDY8); BLI; designed binder): 0.00977 s⁻¹
B5 (CDC48A 1-190)  koff (PUX9 (Arabidopsis thaliana, UniProt Q4V3D3); BLI; 25 °C): 0.0026 s⁻¹
B6 (PPM1A)  log2 fold change (CYB5R4 knockout human cells; PP4 interaction, 3xFLAG-PP4C IP-MS; concentration not given; baseline: CYB5R4 KO over parental): 0.18
